Measured values pooled from the literature.
± gives the spread as reported.
LGALS9: Galectin-9 (LGALS9, Homo sapiens, UniProt O00182)
BPTF bromodomain: Nucleosome-remodeling factor subunit BPTF, bromodomain (BPTF, Homo sapiens, UniProt Q12830)

CC#Cc1cc2c3c(c1)O[C@H](CO)[C@H](O)[C@@H]3OC2  Kd (LGALS9; cell-free assay, FP): > 2000 µM
CC(O)c1c(Oc2ccc(F)c(NC(=O)Cc3cccc(C(F)(F)F)c3)c2)ccc2nc(NC(=O)C3CC3)sc12 (stereo not drawn)  Kd (RIPK3 (Homo sapiens, UniProt Q9Y572); binding, competition with immobilised ligand): 0.14 µM
CCCC[C@@H](C(=O)N1CCN([C@@H](CCC(N)=O)C(N)=O)C(=O)[C@@H]1C)N1CCN[C@@H](CC(C)C)C1=O  Kd (Histone acetyltransferase p300, CH1 domain (EP300, Homo sapiens, UniProt Q09472); binding, tryptophan fluorescence): 0.03 ± 0.01 µM
CC[C@H](C)[C@H](NC(=O)[C@H](CC(=O)O)NC(=O)[C@H](CC(=O)O)NC(=O)[C@@H]1CCCN1C(=O)[C@H](C)NC(=O)[C@H](CC(C)C)NC(=O)[C@H](CCSC)NC(=O)[C@H](CC(C)C)NC(=O)[C@H](CC(=O)O)NC(=O)[C@H](CC(=O)O)NC(=O)[C@H](CCSC)NC(=O)[C@H](C)NC(=O)[C@H](CCC(N)=O)NC(=O)[C@H](C)NC(=O)[C@@H]1CCCN1C(=O)[C@H](CC(C)C)NC(=O)[C@@H]1CCCN1C(=O)[C@H](C)NC(=O)[C@H](CC(C)C)NC(=O)[C@@H](NC(=O)[C@H](CC(N)=O)NC(=O)[C@H](CC(N)=O)NC(=O)[C@H](CCC(=O)O)NC(=O)[C@@H]1CCCN1C(=O)[C@H](CC(C)C)NC(=O)[C@H](CC(C)C)NC(=O)[C@H](CCCCN)NC(=O)[C@H](Cc1c[nH]c2ccccc12)NC(=O)[C@H](CC(C)C)NC(=O)[C@H](CC(=O)O)NC(=O)[C@H](C)NC(=O)[C@H](Cc1ccccc1)NC(=O)[C@H](C)NC(=O)[C@H](CCC(=O)O)NC(=O)[C@H](CCC(N)=O)NC(=O)[C@H](C)NC(=O)[C@H](CC(C)C)NC(=O)[C@@H]1CCCN1C(=O)[C@@H]1CCCN1C(=O)[C@H](CCC(=O)O)NC(=O)[C@@H](NC(=O)[C@H](CO)NC(=O)[C@@H]1CCCN1C(=O)[C@H](CC(=O)O)NC(=O)[C@H](CO)NC(=O)[C@H](CCC(N)=O)NC(=O)[C@@H]1CCCN1C(=O)[C@H](CCC(=O)O)NC(=O)[C@H](CCC(=O)O)NC(=O)[C@@H](N)CCSC)C(C)C)C(C)C)C(=O)N[C@@H](CCC(=O)O)C(=O)N[C@@H](CCC(N)=O)C(=O)N[C@@H](Cc1c[nH]c2ccccc12)C(=O)N[C@@H](Cc1ccccc1)C(=O)N[C@@H](C)C(=O)N[C@@H](CCC(=O)O)C(=O)N[C@@H](CC(=O)O)C(=O)O  Kd (Histone acetyltransferase p300, IBiD domain (EP300, Homo sapiens, UniProt Q09472); fluorescence anisotropy; IBiD domain, together with: labelled p53 TAD peptide): 5.8 ± 0.4 µM
CC[C@H](C)[C@H](NC(=O)[C@H](CCC(=O)O)NC(=O)[C@H](CC(=O)O)NC(=O)[C@H](CC(C)C)NC(=O)[C@@H](NC(=O)[C@H](CCCCN)NC(=O)[C@H](CCCCN)NC(=O)[C@@H](NC(=O)[C@H](CCC(=O)O)NC(=O)[C@H](CCC(=O)O)NC(=O)[C@H](CCC(=O)O)NC(=O)[C@H](CO)NC(=O)[C@H](CC(C)C)NC(=O)[C@H](CC(=O)O)NC(=O)[C@H](CC(C)C)NC(=O)CNC(=O)[C@H](CCCNC(=N)N)NC(=O)[C@H](CC(C)C)NC(=O)[C@H](CO)NC(=O)CNC(=O)CNC(=O)CNC(=O)CCCC[C@@H]1SC[C@@H]2NC(=O)N[C@@H]21)C(C)C)[C@@H](C)CC)C(=O)N[C@@H](C)C(=O)N[C@@H](CCCCN)C(=O)N[C@@H](CC(=O)O)C(=O)O  Kd (Fab B11 antibody (human); binding, biolayer interferometry; together with: biotinylated peptide on tips): 0.047 ± 0.001 µM
CC(=O)NCCCC[C@H](NC(=O)CNC(=O)[C@H](CO)NC(=O)[C@H](CC(=O)O)NC(=O)[C@H](CCCCN)NC(=O)CNC(=O)[C@H](C)NC(=O)[C@H](CCCCN)NC(=O)CNC(=O)CNC(=O)[C@H](C)NC(=O)[C@@H](N)Cc1ccc(O)cc1)C(=O)N[C@@H](C)C(=O)N[C@@H](CCCCN)C(=O)N[C@@H](C)C(=O)N[C@@H](CCCCNC(C)=O)C(=O)N[C@@H](C)C(=O)N[C@H](C(=O)N[C@@H](CO)C(=O)N[C@@H](CCCNC(=N)N)C(N)=O)C(C)C  Kd (BPTF bromodomain; bromodomain binding, PrOF NMR titration; pH 7.4, 5-fluorotryptophan-labelled bromodomain, 40-50 µM): 880 µM
CNC(=O)CCN(Cc1ccc(C(F)F)cc1)C(=O)c1cc2c(OC)ccc(-c3ccc(=O)n(C)c3)c2s1  Kd (Bromodomain-containing protein 4, BD1 (BRD4, Homo sapiens, UniProt O60885); binding, competition with immobilised ligand): 0.32 µM
NC(=O)CNC(=O)CN(CCc1ccc(C(F)(F)F)cc1)C(=O)[C@@H](Cc1ccccc1)NC(=O)CNCc1ccc(Cl)c(Cl)c1  Kd (MMP14 (Homo sapiens, UniProt P50281); binding, FP): > 200 µM
N=C(N)NCCC[C@@H]1NC(=O)[C@H](Cc2csc3ccccc23)NC(=O)[C@@H](Cc2ccccc2)NC(=O)[C@H](Cc2ccccc2)NC(=O)[C@H](CCC(=O)NCCOCCOCC(=O)N[C@@H](CCCCNC(=S)Nc2ccc3c(c2)C(=O)OC32c3ccc(O)cc3Oc3cc(O)ccc32)C(N)=O)NC(=O)[C@@H](CCCNC(=N)N)NC(=O)[C@H](CCCNC(=N)N)NC(=O)[C@@H](CCCNC(=N)N)NC1=O  Kd (fetal bovine serum proteins; binding, fluorescence polarization; 1 h): 30 ± 5 µM
CC(=O)NCCCC[C@H](NC(=O)CNC(=O)CNC(=O)[C@H](C)NC(=O)[C@@H](N)Cc1ccc(O)cc1)C(=O)N[C@@H](C)C(=O)NCC(=O)N[C@@H](CCCCN)C(=O)N[C@@H](CC(=O)O)C(=O)N[C@@H](CO)C(=O)NCC(=O)N[C@@H](CCCCN)C(=O)N[C@@H](C)C(=O)N[C@@H](CCCCN)C(=O)N[C@@H](C)C(=O)N[C@@H](CCCCN)C(=O)N[C@@H](C)C(=O)N[C@H](C(=O)N[C@@H](CO)C(=O)N[C@@H](CCCNC(=N)N)C(N)=O)C(C)C  Kd (BPTF bromodomain; bromodomain binding, PrOF NMR titration; pH 7.4, 5-fluorotryptophan-labelled bromodomain, 40-50 µM): 1290 µM
C[C@]12C=C[C@@]3(CC[C@@H]4[C@@](C)(COC(=O)C(=O)O)CCC[C@@]4(C)[C@@H]3CC1)C2  Kd (Undecaprenyl phosphate-alpha-4-amino-4-deoxy-L-arabinose arabinosyl transferase (arnT, Pseudomonas aeruginosa, UniProt Q02R27)): ~10 µM
C[C@H](N)C(=O)N[C@@H](CCCNC(=N)N)C(=O)N[C@H](C(=O)N[C@@H](CCCCN)C(=O)O)[C@@H](C)OP(=O)(O)O  Kd (BIRC5 (Homo sapiens, UniProt O15392); isothermal titration calorimetry; pH 7.8, 25 °C, together with: histone H3 peptide): 61.7 ± 8.5 µM
CC(=O)N[C@@H]1[C@@H](O[C@@H]2O[C@H](C(=O)O)[C@@H](O[C@@H]3O[C@H](COS(=O)(=O)O)[C@@H](OS(=O)(=O)O)[C@H](O[C@@H]4O[C@H](C(=O)O)[C@@H](OS(=O)(=O)O)[C@H](OS(=O)(=O)O)[C@H]4OS(=O)(=O)O)[C@H]3NC(C)=O)[C@H](OS(=O)(=O)O)[C@H]2OS(=O)(=O)O)[C@H](OS(=O)(=O)O)[C@@H](COS(=O)(=O)O)O[C@H]1N=[N+]=[N-]  Kd (Transforming growth factor beta-1 proprotein, mature (TGFB1, Homo sapiens, UniProt P01137); fluorescence polarization competition): 4.8 ± 1.7 µM
O=C(O)C1Oc2cc(F)ccc2N(Cc2ccccc2)C1=O (stereo not drawn)  Kd (Dihydroxy-acid dehydratase, chloroplastic (DHAD, Arabidopsis thaliana, UniProt Q9LIR4); microscale thermophoresis): 1360 µM
C[C@@H](O)[C@@H]1NC(=O)[C@H](CCCCN)NC(=O)[C@@H](Cc2c[nH]c3ccccc23)NC(=O)[C@H](Cc2ccc(O)cc2)NC(=O)[C@H](NC(=O)[C@H](Cc2ccc([N+](=O)[O-])cc2)NC(=O)CN2CCCN3CCN(CCCN(CC(=O)O)CC3)CC2)CSSC[C@@H](C(=O)N[C@H](Cc2ccc(O)cc2)C(N)=O)NC1=O [copper-64 labelled]  Kd (Somatostatin receptor type 2 (Rattus norvegicus, UniProt P30680); saturation binding; AR-42J cell membranes): 0.026 ± 0.0024 µM
C[C@H](NC(=O)[C@H](Cc1ccc(O)cc1)NC(=O)[C@H](Cc1ccccc1)NC(=O)[C@H](CCC(=O)O)NC(=O)[C@H](CC(N)=O)NC(=O)[C@@H](NC(=O)[C@@H]1CCCN1C(=O)[C@H](C)NS(=O)(=O)c1cccc2c(N(C)C)cccc12)[C@@H](C)O)C(=O)O  Kd (Rho guanine nucleotide exchange factor TIAM1, PDZ domain (TIAM1, Homo sapiens, UniProt Q13009); fluorescence anisotropy; 25 °C, PDZ domain): 397 ± 17 µM
COc1cc(CC(=O)O)ccc1O  Kd (p-hydroxyphenylacetate 3-hydroxylase, reductase component (C1-hpah, Acinetobacter baumannii, UniProt Q6Q271); ITC; pH 7, together with: 1 mM FMN): 39.5 ± 5.75 µM
COc1cncc(-c2cc(F)cc(CNC(=O)c3cc(N4CC[C@@](C#N)(C5CC5)C4=O)cc(C)n3)c2)c1  Kd (Proline--tRNA ligase (Plasmodium falciparum, UniProt Q8I5R7); binding, MST): 0.0875 µM
CC[C@H](C)[C@H](NC(=O)[C@H](CCCCN)NC(=O)[C@H](CCCCN)NC(=O)[C@@H](NC(=O)[C@H](CCC(=O)O)NC(=O)[C@H](CCC(=O)O)NC(=O)[C@H](CCC(=O)O)NC(=O)[C@H](CO)NC(=O)[C@H](CC(C)C)NC(=O)[C@H](C)NC(=O)[C@H](CC(C)C)NC(=O)CNC(=O)[C@H](CCCNC(=N)N)NC(=O)[C@H](CC(C)C)NC(=O)[C@H](CO)NC(=O)CNC(=O)CNC(=O)CNC(=O)CCCC[C@@H]1SC[C@@H]2NC(=O)N[C@@H]21)C(C)C)C(=O)N[C@@H](CC(C)C)C(=O)N[C@@H](CC(=O)O)C(=O)N[C@@H](CCC(=O)O)C(=O)N[C@H](C(=O)N[C@H](C(=O)N[C@@H](CCCCN)C(=O)N[C@@H](CC(=O)O)C(=O)O)C(C)C)[C@@H](C)CC  Kd (Fab B11 antibody (human); binding, biolayer interferometry; together with: biotinylated peptide on tips): 0.094 ± 0.002 µM
CCCc1cc2c3c(c1CCC)O[C@H](CO)[C@H](O)[C@@H]3OC2  Kd (LGALS9; cell-free assay, FP): > 2000 µM
O=[N+]([O-])c1cc(Br)cc([N+](=O)[O-])c1NS(=O)(=O)c1ccc(Br)cc1  Kd (PYL1 (Arabidopsis thaliana, UniProt Q8VZS8); binding, ITC; pH 7.5): 35.1 µM
CC#Cc1cc2c3c(c1C#CC)O[C@H](CO)[C@H](O)[C@@H]3OC2  Kd (LGALS9; cell-free assay, FP): > 2000 µM
Oc1c(I)cc(Cl)cc1CN1CCC(N2CCC(O)CC2)CC1  Kd (TP53 (Homo sapiens, UniProt P04637, M133L/N239Y/N268D/V203A/Y220C); 20 °C, protein 75 µM): 247 ± 44 µM
CC(=O)NCCCC[C@H](NC(=O)CNC(=O)[C@H](C)NC(=O)[C@H](CCCCN)NC(=O)CNC(=O)CNC(=O)[C@H](C)NC(=O)[C@@H](N)Cc1ccc(O)cc1)C(=O)N[C@@H](CC(=O)O)C(=O)N[C@@H](CO)C(=O)NCC(=O)N[C@@H](CCCCN)C(=O)N[C@@H](C)C(=O)N[C@@H](CCCCN)C(=O)N[C@@H](C)C(=O)N[C@@H](CCCCNC(C)=O)C(=O)N[C@@H](C)C(=O)N[C@H](C(=O)N[C@@H](CO)C(=O)N[C@@H](CCCNC(=N)N)C(N)=O)C(C)C  Kd (BPTF bromodomain; bromodomain binding, PrOF NMR titration; pH 7.4, 5-fluorotryptophan-labelled bromodomain, 40-50 µM): 370 µM

Excerpt of the above:
CC(=O)NCCCC[C@H](NC(=O)CNC(=O)[C@H](CO)NC(=O)[C@H](CC(=O)O)NC(=O)[C@H](CCCCN)NC(=O)CNC(=O)[C@H](C)NC(=O)[C@H](CCCCN)NC(=O)CNC(=O)CNC(=O)[C@H](C)NC(=O)[C@@H](N)Cc1ccc(O)cc1)C(=O)N[C@@H](C)C(=O)N[C@@H](CCCCN)C(=O)N[C@@H](C)C(=O)N[C@@H](CCCCNC(C)=O)C(=O)N[C@@H](C)C(=O)N[C@H](C(=O)N[C@@H](CO)C(=O)N[C@@H](CCCNC(=N)N)C(N)=O)C(C)C  Kd (BPTF bromodomain; bromodomain binding, PrOF NMR titration; pH 7.4, 5-fluorotryptophan-labelled bromodomain, 40-50 µM): 880 µM
CNC(=O)CCN(Cc1ccc(C(F)F)cc1)C(=O)c1cc2c(OC)ccc(-c3ccc(=O)n(C)c3)c2s1  Kd (Bromodomain-containing protein 4, BD1 (BRD4, Homo sapiens, UniProt O60885); binding, competition with immobilised ligand): 0.32 µM
